Measurements from different studies.
Each line is one published result; not all experiments were run side by side. Several values in a cell are separate wells, animals, samples, runs or records. ± marks the error that the study gave.
Sodium channel protein type 4 alpha BTX-activated: Sodium channel protein type 4 alpha, BTX-activated (Oryctolagus cuniculus, UniProt G1SLL9)

| SMILES | tested on | assay | test system | setting | how to read | measurement | result |
| --- | --- | --- | --- | --- | --- | --- | --- |
| CCCCCCCCCCCCCC[N+](C)(C)C | Sodium channel protein type 4 alpha BTX-activated |  |  | concentration not given, 0 mV |  | k-1 | 12.6 s⁻¹ |
| CN(C)c1ccc2nc3ccc(N(C)C)cc3[s+]c2c1 | VSVΔG pseudotyped with MERS-CoV S | pseudovirus infection |  | 10 µM |  | inhibition | 75% |
| COc1cc(NC(=O)Nc2cccc(CNC(=O)O[C@H]3CCOC3)c2)ccc1-c1cnco1 | Monkeypox virus | viral replication | replication-deficient | 10 µM, 60 h |  | inhibition | 99.9% |
| CC(C)C(=O)OC[C@@]1(F)O[C@@H](n2cnc(-c3cnc(=O)[nH]c3)c2)[C@H](OC(=O)C(C)C)[C@@H]1OC(=O)C(C)C | Zaire ebolavirus | viral replication, reporter virus | Huh-7 | 72 h |  | IC50 | 87.6 µM |
| NC(=O)c1nc(F)c[nH]c1=O | Lassa virus |  | HeLa, clade IV Josiah |  |  | EC50 | 47.8 ± 13.6 µM |
| CCCCCCCCCCCC[N+](C)(C)C.[Cl-] | Sodium channel protein type 4 alpha BTX-activated |  |  | concentration not given, 0 mV |  | k-1 | 19.3 s⁻¹ |
| CCOc1nc(N)ncc1-c1cn([C@@H]2O[C@](F)(CO)[C@@H](O)[C@H]2O)cn1 | Zaire ebolavirus | viral replication, reporter virus | Huh-7 | 72 h |  | IC50 | > 100 µM |
| COc1cc2ncnc(Nc3cccc(Cl)c3)c2cc1OC | Monkeypox virus | viral infection | replication-deficient | 0.046 µM | reference: untreated | infection | 99.7% and 100% and 108% |
| NC(=O)c1ncn([C@@H]2O[C@H](CO)[C@@H](O)[C@H]2O)n1 | Lassa virus |  | HeLa, clade IV Josiah |  |  | EC50 | 2.63 ± 0.71 µM |

For quick reference, copied from above:
| SMILES | tested on | assay | test system | setting | how to read | measurement | result |
| --- | --- | --- | --- | --- | --- | --- | --- |
| CCCCCCCCCCCC[N+](C)(C)C.[Cl-] | Sodium channel protein type 4 alpha BTX-activated |  |  | concentration not given, 0 mV |  | k-1 | 19.3 s⁻¹ |
